Results collected from several papers.
Parts stem from different laboratories: compare values within a part only.
Sequence of UniProt O15146 (whole entry, looked up): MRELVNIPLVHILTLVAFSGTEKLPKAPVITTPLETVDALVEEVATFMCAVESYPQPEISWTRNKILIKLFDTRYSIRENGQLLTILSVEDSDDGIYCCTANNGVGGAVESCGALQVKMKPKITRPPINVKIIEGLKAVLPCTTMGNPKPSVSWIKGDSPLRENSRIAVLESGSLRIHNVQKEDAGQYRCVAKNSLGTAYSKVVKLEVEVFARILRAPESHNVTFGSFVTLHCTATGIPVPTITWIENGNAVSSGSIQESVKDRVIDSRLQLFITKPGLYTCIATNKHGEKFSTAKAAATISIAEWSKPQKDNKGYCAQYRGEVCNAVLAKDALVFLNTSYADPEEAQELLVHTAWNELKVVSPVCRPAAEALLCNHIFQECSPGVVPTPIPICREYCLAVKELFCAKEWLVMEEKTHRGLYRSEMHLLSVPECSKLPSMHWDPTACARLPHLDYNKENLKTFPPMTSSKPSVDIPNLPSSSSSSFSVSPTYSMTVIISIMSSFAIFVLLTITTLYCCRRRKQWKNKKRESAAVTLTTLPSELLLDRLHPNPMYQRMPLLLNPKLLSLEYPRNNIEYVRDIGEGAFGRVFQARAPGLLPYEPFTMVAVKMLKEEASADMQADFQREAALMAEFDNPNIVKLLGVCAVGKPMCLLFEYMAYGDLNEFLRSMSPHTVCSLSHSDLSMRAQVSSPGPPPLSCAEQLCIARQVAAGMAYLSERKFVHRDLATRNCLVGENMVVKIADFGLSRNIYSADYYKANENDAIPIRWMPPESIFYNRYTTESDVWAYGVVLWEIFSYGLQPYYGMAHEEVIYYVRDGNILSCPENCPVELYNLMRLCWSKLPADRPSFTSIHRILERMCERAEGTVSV

Sample 1 — method: protein binding microarray; molecule type: double-stranded DNA, one strand shown; sample: in vitro; concentration: not given; baseline: not given; direction: higher = stronger binding
Target: Histone acetyltransferase KAT6A, winged helix 2, GST fusion (KAT6A, Homo sapiens, UniProt Q92794, residues 85-181)
Notes: 8-mer, flanks averaged, mean of 2 arrays, mostly near background
Residues (chain): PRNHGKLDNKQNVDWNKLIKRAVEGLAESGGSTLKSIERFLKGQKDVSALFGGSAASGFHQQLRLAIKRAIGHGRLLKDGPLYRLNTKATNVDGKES
Strand	E-score
GTGTGAAC	0.0286
CTTAGCCC	0.0644
CTCGTGGC	0.0829
AACAGTAC	-0.0676
ATACTTGG	-0.0999
CTGTTGAA	0.114
ACACAGAT	-0.0726
GAAGTCGC	-0.151

Sample 2 — method: protein-binding microarray; molecule type: double-stranded DNA, one strand shown; sample: in vitro; concentration: not given; direction: higher = stronger binding
Target: Protein max, full length (MAX, Homo sapiens, UniProt P61244-2, residues 1-151)
Notes: k-mer, scored over probes, only values ≥0.25
Strand	E-score
ACGCATGA	0.398
CACGTGAG	0.493
ACGTGCCA	0.448
CGCGTGTA	0.451
CGTGGCTC	0.397
AACATGCT	0.389
AAGTCATG	0.297
CACGGGCA	0.283

Sample 3 — method: RNA Bind-n-Seq; molecule type: RNA; sample: in vitro; concentration: 200 nM; notes: whole 134-nt RNA, ends assumed; together with: 150 mM KCl; baseline: input library; direction: higher = stronger binding
Target: Ras GTPase-activating protein-binding protein 1, full length (G3BP1, Homo sapiens, UniProt Q13283)
Sequence of UniProt Q13283 (whole entry, looked up): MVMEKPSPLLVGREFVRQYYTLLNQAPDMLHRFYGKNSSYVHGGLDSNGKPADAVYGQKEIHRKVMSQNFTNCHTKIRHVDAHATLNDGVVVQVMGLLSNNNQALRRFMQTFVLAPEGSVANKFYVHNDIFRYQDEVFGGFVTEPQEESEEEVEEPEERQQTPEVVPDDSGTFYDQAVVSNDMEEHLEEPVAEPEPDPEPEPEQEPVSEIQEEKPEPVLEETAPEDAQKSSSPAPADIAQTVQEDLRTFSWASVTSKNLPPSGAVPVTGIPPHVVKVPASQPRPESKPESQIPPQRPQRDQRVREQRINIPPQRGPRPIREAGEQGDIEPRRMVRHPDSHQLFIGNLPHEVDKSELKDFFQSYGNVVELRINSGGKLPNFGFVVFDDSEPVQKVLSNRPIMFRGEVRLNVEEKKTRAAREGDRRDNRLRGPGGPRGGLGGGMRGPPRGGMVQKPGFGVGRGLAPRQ
Strand	log2 enrichment
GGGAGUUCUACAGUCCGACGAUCUGGGAGGUGGAUUUUGUUUAUUUUUUUAGCUCAUUUCCAGGGGUGGGAAUUUUUUUUUAAUAUGUGACAUGAAUAAAGUUGUUUUUGAAAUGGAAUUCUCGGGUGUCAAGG	0.0727
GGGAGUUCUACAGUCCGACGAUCGUCCUGUGCUACACAUCGUAUGUACCGAAUCGGGAAAAAAGGAAAAAAGGAAAAAAGGAAAGUAUUAUGUUACGCCGUUCGGAUCUGCACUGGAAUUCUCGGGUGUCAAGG	-0.637
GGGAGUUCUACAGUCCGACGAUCAGUCCUGUGCUACACAUCGUAUGUACCGAAUCGGGGCCCCGGGGCCCCGGGCCCCGGAAAGUAUUAUGUUACGCCGUUCGGAUCUGCACUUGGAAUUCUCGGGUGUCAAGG	0.374
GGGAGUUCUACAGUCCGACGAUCUGGGACGUGGAUUUUGUUUAUUUUUUUAGCUCAUUUCCAGGGGUGGGAAUUUUUUUUUAAUAUGUGUCAUGAAUAAAGUUGUUUUUGAAAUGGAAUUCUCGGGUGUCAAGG	-0.427
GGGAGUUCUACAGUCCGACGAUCUGGCUUCGAAGUACAGUCUUUGCAGGAUGCAGGAAAUCAGCUUGGUAUGGAGGAUACAUCUCUGAGCUCUGGAAUGCUCACCCAGAACACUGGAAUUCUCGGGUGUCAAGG	-0.792
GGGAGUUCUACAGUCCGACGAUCAAGUCCUGUGCUACACAUCGUAUGUACCGAAUCGGGAAAAGGAAAAGGGAAAAGGGAAAGUAUUAUGUUACGCCGUUCGGAUCUGCACUUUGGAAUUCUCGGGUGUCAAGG	-0.796
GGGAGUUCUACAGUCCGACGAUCUCAAGUCCUGUGCUACACAUCGUAUGUACCGAAUCGGGGCCGGCCGGGGCCGGGAAAGUAUUAUGUUACGCCGUUCGGAUCUGCACUUCCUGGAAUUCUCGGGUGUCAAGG	-0.527
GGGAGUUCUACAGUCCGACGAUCGCAGGUAGUAAAAACAAAUGGAAAUGCUUCGGAUAGUGGCAGGGGUGGGGGUUGCUAAGGAAAGGGUGGGAUGGGAGUGGGUAAAGAGUUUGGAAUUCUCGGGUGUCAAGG	1.01

Other studies, line by line
SMILES	target	effect on	action	concentration	baseline	endpoint	result
CCCC(=O)Oc1ccc2[nH]c(C(=O)c3cc4ccccc4[nH]3)cc2c1	Muscle, skeletal receptor tyrosine-protein kinase (MUSK, Homo sapiens, UniProt O15146)	enzyme activity	inhibitor	0.5 µM	control	remaining activity	79.8%

Repeated from above (sample 3):
Strand	log2 enrichment
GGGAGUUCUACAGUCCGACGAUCGUCCUGUGCUACACAUCGUAUGUACCGAAUCGGGAAAAAAGGAAAAAAGGAAAAAAGGAAAGUAUUAUGUUACGCCGUUCGGAUCUGCACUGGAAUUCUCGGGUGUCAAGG	-0.637
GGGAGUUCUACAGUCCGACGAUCAGUCCUGUGCUACACAUCGUAUGUACCGAAUCGGGGCCCCGGGGCCCCGGGCCCCGGAAAGUAUUAUGUUACGCCGUUCGGAUCUGCACUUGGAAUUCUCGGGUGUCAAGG	0.374
